Published values pooled from the literature.
Numbered parts are unrelated; each lists some results of a single study. Changes are numbered by the printed parent chain.

Set 1 — observed: binding; method: phage display NGS; form: peptide; reference: input library; measurement: minimum log2 enrichment ratio
Target: UDP-N-acetylglucosamine--peptide N-acetylglucosaminyltransferase 110 kDa subunit (OGT, Homo sapiens, UniProt O15294)
Sequence of UniProt O15294 (whole entry, looked up): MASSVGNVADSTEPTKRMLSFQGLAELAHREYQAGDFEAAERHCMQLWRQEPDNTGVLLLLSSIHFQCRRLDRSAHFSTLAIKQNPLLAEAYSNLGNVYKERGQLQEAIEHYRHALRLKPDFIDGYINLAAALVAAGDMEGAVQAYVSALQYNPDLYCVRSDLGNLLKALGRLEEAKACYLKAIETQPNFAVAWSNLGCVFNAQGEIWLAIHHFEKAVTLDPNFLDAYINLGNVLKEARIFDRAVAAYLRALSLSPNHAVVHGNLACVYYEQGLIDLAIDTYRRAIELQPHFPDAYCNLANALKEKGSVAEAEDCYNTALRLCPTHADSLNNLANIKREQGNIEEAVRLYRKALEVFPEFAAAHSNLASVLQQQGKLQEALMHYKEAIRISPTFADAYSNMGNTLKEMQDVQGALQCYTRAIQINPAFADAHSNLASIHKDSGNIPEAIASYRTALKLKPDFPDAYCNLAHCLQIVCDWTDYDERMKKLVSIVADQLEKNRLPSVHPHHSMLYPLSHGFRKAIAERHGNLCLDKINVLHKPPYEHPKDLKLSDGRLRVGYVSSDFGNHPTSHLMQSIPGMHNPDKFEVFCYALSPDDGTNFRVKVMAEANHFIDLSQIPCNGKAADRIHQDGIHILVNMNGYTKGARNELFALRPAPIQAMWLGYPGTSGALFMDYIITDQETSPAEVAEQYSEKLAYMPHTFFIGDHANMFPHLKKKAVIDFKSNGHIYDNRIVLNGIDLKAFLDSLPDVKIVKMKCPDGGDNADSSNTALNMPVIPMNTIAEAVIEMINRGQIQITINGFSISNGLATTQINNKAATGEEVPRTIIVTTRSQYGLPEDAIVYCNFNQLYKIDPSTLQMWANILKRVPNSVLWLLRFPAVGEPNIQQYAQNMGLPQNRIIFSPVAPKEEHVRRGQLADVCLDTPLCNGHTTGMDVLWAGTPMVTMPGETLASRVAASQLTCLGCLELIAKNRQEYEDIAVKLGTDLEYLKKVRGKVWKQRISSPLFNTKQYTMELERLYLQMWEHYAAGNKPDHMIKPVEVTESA
TIEHHHRTHTPMPSY: 3
GPRNLIPKYQIQYTY: 5.44
QWQLFPPKYMIITT: 4.79
YRTAHSHDHASHHNH: 3.53
TYHAAHVRTWSQHHA: 2.64
DSWFHAFAHHGHNTP: 2.66
HSLMHKGHKHHVGDI: 2.03
SRSHPVEQPVNFQHH: 1.59
HLYTFQHHRSEWLGR: 1.37
IRHPYDHFHDKPGGS: 3.23

Set 2 — method: DHFR PCA, dose-response; matrix: yeast; notes: Hill fit, mean, not affinity; together with: (+)-ABA, dose series; direction: lower = more sensitive; measurement: ABA EC50
Target: ABI1, truncated, D143A, DHFR fusion (Arabidopsis thaliana, UniProt P49597)
Starting sequence: PYL1, truncated, DHFR fusion (Arabidopsis thaliana, UniProt Q8VZS8); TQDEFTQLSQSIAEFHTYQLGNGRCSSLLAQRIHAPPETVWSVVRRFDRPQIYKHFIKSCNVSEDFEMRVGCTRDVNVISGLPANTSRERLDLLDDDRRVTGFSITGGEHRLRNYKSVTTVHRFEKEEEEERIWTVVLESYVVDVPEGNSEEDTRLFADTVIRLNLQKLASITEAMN
E14R: 8.29 µM
F103L: 401 µM
F66L: 8.59 µM
D96Q: 127 µM
E38T: 11 µM
T6C: 2.88 µM
R123W: 18.1 µM
C60G: 934 µM

Set 3 — target: CCNF, cyclin fold, Cln2 fusion (human); method: yeast growth competition, sequencing; matrix: yeast; notes: strong parent motif; reference: not given; direction: higher = stronger binding; measurement: normalised enrichment score; starting sequence: viral docking peptide; TSVRRALFTGGSD
TSVRRALFTGGGD [S12G]: 8.06
TSVRRALFTGGFD [S12F]: 8.48
TRVRRALFTGGSD [S2R]: 8.71
TSVRRLLFTGGSD [A6L]: 6.88
TSHRRALFTGGSD [V3H]: 3.08
TSVRRAAFTGGSD [L7A]: 0.631
TSVRRALFTGDSD [G11D]: 7.83
TSVRRKLFTGGSD [A6K]: 8.62
TSVRRASFTGGSD [L7S]: -0.544
TFVRRALFTGGSD [S2F]: 7.23
TSVRFALFTGGSD [R5F]: 0.489
TMVRRALFTGGSD [S2M]: 7.95
TSVRRALFTGWSD [G11W]: 8.8
TSVRRALNTGGSD [F8N]: 0.849
TSVRRALFTEGSD [G10E]: 8.14
TSVRRAEFTGGSD [L7E]: 0.328
TSVMRALFTGGSD [R4M]: 5.46
TSVRRALFTGRSD [G11R]: 8.4
TSVRRPLFTGGSD [A6P]: 6.23
TSVRRALFTSGSD [G10S]: 8.3
TSVWRALFTGGSD [R4W]: 2.88
TSVRRALFCGGSD [T9C]: 8.23
TSVRRALFPGGSD [T9P]: 8.78
TSVRRALFTGSSD [G11S]: 8.08
TSVRDALFTGGSD [R5D]: -0.217

Set 4 — target: inorganic phosphate, free oxyanion; method: microfluidic competitive inhibition; matrix: in vitro, cell-free expressed; concentration: not given; direction: lower = stronger binding; measurement: phosphate dissociation constant
Notes: derived from inhibition constants, unchanged parent 615000 nM
Starting sequence: PafA, mature enzyme, eGFP fusion (Elizabethkingia meningoseptica, UniProt Q9KJX5); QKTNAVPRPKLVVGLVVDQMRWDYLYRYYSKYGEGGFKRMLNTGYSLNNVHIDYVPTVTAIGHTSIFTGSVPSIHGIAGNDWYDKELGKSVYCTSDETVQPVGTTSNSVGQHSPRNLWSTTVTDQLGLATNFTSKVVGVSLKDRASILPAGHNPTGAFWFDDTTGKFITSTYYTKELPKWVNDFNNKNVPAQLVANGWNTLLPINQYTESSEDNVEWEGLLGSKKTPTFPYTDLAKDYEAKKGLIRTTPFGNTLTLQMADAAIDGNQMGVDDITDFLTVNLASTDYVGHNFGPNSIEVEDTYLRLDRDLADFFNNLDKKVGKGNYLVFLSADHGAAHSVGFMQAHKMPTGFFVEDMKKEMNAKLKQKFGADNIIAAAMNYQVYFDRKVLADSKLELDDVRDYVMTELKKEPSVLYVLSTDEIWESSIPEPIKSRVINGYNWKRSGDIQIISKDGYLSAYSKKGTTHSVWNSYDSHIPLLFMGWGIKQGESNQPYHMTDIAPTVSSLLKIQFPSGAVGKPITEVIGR
Y173V: 518 µM
N49G: 453 µM
G269A: 594 µM
G219V: 603 µM
V399A: 654 µM
T464G: 276 µM
Y83G: 384 µM
V17A: 717 µM
E209G: 528 µM
M360G: 546 µM
S505G: 578 µM
V516A: 530 µM
D317V: 446 µM

Excerpt of the above (set 3):
TSVRRALFTGDSD [G11D]: 7.83
TSVRRKLFTGGSD [A6K]: 8.62
TSVRRASFTGGSD [L7S]: -0.544
TFVRRALFTGGSD [S2F]: 7.23
